Results pooled from the literature.
Lines come from different studies, so protocols differ. ± marks the error that the study gave.
PARP1: Poly [ADP-ribose] polymerase 1 (PARP1, Homo sapiens, UniProt P09874)
UniProt P09874, sequence (whole entry, looked up): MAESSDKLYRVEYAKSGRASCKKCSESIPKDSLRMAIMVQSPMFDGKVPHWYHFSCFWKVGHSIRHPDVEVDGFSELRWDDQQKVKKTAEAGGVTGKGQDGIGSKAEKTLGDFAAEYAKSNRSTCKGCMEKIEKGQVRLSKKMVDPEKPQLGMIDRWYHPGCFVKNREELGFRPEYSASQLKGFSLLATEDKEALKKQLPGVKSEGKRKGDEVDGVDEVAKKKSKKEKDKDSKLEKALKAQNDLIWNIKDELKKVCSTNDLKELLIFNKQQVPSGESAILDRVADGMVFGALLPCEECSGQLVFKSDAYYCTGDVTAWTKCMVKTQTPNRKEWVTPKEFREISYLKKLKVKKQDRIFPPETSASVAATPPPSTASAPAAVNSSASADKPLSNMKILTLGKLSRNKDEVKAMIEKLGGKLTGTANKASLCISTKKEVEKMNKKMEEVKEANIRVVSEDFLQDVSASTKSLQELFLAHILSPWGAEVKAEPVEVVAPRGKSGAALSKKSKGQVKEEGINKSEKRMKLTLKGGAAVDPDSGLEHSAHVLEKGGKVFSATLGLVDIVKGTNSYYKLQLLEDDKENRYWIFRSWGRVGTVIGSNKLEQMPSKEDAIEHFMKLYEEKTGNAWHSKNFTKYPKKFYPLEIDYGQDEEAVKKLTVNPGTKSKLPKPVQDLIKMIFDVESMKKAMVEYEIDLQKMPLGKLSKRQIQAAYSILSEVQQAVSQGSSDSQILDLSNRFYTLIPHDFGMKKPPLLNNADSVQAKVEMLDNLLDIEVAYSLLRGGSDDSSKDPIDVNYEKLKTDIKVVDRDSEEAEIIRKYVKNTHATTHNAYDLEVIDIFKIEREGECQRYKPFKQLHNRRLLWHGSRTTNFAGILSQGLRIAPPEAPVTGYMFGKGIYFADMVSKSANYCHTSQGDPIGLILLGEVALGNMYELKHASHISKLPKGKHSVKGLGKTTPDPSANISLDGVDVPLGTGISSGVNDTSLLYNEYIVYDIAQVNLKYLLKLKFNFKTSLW
DCN1-like protein 1 PONY domain: DCN1-like protein 1, PONY domain (Homo sapiens, UniProt Q96GG9)
Protein lin-28 homolog A: Protein lin-28 homolog A (Mus musculus, UniProt Q8K3Y3)
UniProt Q8K3Y3, sequence (whole entry, looked up): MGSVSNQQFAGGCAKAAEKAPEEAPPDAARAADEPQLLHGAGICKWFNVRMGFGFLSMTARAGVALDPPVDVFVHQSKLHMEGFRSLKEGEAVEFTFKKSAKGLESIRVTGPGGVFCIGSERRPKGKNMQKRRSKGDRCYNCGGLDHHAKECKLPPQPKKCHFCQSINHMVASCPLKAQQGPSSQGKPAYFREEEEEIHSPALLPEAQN
TYMS: Thymidylate synthase (TYMS, Homo sapiens, UniProt P04818)
UniProt P04818, sequence (whole entry, looked up): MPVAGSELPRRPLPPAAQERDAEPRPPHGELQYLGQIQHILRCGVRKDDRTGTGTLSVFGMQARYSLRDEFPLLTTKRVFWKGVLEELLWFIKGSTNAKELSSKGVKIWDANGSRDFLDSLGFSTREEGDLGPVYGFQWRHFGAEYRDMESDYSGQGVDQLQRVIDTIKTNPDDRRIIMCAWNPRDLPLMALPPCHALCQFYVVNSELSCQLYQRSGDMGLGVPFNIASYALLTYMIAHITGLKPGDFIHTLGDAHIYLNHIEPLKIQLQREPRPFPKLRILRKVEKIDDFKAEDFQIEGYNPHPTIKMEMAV
TGFBR1: TGF-beta receptor type-1 (TGFBR1, Homo sapiens, UniProt P36897)
UniProt P36897, sequence (whole entry, looked up): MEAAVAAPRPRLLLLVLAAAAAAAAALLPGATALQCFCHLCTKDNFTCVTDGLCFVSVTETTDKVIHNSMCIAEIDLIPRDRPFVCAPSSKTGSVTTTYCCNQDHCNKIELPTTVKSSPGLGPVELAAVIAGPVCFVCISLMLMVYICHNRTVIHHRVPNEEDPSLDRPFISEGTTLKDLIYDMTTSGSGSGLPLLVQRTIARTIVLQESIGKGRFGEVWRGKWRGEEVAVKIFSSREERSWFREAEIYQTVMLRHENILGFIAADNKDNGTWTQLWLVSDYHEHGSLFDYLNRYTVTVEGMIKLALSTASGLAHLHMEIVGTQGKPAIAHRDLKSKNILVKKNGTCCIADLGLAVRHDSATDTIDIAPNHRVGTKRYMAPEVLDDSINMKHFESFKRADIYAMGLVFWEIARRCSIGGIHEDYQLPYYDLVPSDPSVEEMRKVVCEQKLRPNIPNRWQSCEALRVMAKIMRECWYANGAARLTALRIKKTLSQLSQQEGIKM
F11: Coagulation factor XI (F11, Homo sapiens, UniProt P03951)
UniProt P03951, sequence (whole entry, looked up): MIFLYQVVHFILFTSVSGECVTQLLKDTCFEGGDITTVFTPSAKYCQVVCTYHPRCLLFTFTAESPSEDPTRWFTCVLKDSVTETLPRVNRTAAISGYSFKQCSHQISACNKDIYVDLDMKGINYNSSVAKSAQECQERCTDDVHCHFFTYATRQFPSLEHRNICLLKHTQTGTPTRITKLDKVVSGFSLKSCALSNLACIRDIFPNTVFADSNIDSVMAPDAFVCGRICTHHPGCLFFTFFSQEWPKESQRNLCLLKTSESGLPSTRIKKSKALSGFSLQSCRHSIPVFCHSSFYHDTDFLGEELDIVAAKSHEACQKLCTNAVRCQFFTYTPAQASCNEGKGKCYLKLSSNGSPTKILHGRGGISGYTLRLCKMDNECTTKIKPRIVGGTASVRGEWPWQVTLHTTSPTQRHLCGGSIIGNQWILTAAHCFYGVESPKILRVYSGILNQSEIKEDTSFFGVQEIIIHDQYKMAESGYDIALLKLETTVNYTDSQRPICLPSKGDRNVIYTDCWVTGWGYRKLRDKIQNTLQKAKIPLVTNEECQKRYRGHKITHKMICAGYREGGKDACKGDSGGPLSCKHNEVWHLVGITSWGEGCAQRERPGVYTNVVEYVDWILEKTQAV
UniProt P06396, sequence (whole entry, unmodified, looked up): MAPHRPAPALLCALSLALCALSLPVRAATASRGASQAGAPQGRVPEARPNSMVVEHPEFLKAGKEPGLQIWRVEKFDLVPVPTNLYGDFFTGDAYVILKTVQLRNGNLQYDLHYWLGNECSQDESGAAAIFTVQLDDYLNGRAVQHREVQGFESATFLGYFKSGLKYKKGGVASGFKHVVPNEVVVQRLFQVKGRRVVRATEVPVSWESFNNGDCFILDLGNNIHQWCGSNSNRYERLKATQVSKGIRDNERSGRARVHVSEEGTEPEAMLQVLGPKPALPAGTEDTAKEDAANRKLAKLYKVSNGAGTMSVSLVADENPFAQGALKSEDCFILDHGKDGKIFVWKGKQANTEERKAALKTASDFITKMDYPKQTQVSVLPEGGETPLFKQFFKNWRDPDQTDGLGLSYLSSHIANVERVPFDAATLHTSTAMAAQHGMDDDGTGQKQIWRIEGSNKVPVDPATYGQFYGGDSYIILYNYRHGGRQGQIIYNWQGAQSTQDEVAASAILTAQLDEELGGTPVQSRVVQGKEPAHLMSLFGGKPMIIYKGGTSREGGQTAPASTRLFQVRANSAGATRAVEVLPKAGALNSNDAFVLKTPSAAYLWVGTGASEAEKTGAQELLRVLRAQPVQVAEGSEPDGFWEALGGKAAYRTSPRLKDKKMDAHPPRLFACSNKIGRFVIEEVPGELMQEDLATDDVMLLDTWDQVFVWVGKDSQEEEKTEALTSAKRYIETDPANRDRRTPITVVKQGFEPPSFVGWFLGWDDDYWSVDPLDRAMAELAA
UniProt Q9P0L9, sequence (whole entry, unmodified, looked up): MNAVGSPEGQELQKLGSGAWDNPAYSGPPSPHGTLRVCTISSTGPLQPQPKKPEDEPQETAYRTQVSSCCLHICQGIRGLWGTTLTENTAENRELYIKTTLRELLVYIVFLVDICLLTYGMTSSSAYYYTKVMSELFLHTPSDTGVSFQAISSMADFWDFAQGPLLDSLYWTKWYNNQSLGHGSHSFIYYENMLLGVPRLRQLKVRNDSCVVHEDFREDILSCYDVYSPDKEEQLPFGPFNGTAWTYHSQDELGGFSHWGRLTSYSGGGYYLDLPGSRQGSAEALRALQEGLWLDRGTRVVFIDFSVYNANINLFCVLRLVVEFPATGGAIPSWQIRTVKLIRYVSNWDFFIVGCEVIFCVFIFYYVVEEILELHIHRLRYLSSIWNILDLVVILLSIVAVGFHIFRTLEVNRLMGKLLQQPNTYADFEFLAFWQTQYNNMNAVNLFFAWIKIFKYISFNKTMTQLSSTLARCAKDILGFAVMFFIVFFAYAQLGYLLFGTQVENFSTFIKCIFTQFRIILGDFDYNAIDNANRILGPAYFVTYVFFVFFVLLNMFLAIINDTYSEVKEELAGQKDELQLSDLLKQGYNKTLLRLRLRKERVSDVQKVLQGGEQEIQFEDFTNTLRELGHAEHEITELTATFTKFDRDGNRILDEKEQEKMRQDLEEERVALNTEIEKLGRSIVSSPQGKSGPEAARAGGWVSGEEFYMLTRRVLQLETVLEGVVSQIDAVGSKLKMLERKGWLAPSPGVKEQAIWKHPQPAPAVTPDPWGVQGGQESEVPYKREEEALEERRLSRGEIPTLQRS
UniProt F1QCV2, sequence (whole entry, looked up): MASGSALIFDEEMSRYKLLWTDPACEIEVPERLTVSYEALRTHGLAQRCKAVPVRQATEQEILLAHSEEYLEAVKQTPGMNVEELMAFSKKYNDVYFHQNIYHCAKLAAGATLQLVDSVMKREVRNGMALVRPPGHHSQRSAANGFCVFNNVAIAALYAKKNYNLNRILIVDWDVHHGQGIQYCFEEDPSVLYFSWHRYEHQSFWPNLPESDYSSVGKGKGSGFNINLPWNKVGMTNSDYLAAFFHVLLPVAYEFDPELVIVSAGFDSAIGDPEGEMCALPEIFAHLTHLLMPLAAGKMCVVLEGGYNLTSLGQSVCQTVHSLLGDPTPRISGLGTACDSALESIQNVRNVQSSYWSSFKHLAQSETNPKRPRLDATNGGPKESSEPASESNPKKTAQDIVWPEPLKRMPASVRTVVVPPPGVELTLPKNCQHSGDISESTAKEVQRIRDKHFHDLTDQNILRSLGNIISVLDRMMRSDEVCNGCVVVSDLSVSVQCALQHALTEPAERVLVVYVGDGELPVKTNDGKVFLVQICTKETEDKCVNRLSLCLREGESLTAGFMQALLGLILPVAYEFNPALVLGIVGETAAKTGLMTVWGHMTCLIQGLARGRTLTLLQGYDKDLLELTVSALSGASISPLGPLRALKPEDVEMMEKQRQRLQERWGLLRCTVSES

Structure (SMILES)	target	test	test system	setting	IC50
NC(=O)c1cccc2c1O/C(=C\c1ccc(C(=O)N[C@@H]3CCNC3)s1)C2=O	PARP1	inhibitor	–	–	0.19 µM
C=CC(=O)NCc1ccccc1CN(C(=O)Nc1cccc(C(F)(F)F)c1)C1CCN(C(C)CCC)CC1 (stereo not drawn)	DCN1-like protein 1 PONY domain	binding, inhibitor, TR-FRET	–	24 h, racemic mixture	0.135 ± 0.129 µM
CC(=O)c1n[nH]c2ccc(-c3cnc4ccc(N(C)C5CCOCC5)nn34)cc12	TYRO protein tyrosine kinase-binding protein (TYROBP, Homo sapiens, UniProt O43914)	split luciferase reporter	human cells	6 h, treatment 48 h after induction, added: doxycycline induction	0.8 ± 0.2 µM
Cc1cc2c(cc1N1C(=O)c3cccc4c(Cl)ccc(c34)C1=O)n(C)c(=O)n2C	Peregrin, bromodomain; with histone H4 (BRPF1, Homo sapiens, UniProt P55201)	binding, inhibitor, NanoBRET	HCT-116	–	> 10 µM
Cc1cc(=O)[nH]c(SCc2cccc3ccccc23)n1	Protein lin-28 homolog A	–	–	–	33.9 µM
COc1ccc(CNC(=O)c2ccc(CNCc3cnc4nc(N)nc(N)c4n3)cc2)cc1	TYMS	inhibitor	–	–	> 100 µM
Cc1ccc(C)n1-c1sccc1C(=O)O	Protein lin-28 homolog A	–	–	–	5.4 µM
NC(=O)C1CCN(C(=O)Cc2ccc(N(CCCO)Cc3cnc4nc(N)nc(N)c4n3)cc2)CC1	TYMS	inhibitor	–	–	> 100 µM
CCCC(C)N1CCC(N(Cc2ccccc2NC(=O)CC)C(=O)Nc2cccc(C(F)(F)F)c2)CC1 (stereo not drawn)	DCN1-like protein 1 PONY domain	inhibitor, TR-FRET	–	preincubation one hour	1.34 ± 0.152 µM
c1coc(CNc2ncnc3[nH]cnc23)c1	Gelsolin, N184K peptide (GSN, Homo sapiens, UniProt P06396)	amyloid aggregation, inhibitor, ThT fluorescence	–	12 h, 37 °C	23 ± 1.7 µM
C[C@H]1[C@H](OC(=O)CCC(=O)O)O[C@@H]2O[C@@]3(C)CC[C@H]4[C@H](C)CC[C@@H]1[C@@]24OO3	Lymphocyte antigen 96 (LY96, Homo sapiens, UniProt Q9Y6Y9)	tryptophan fluorescence quenching	–	corrected for ligand depletion	0.407 µM
Cc1cccc(-c2nc(CN(C)C)[nH]c2-c2ccncc2)c1	TGFBR1	binding, LanthaScreen kinase binding	–	–	0.265 ± 0.0504 µM
NC1=NN(c2ccc(Oc3ccccc3)c(S(=O)(=O)O)c2)C(=O)C1	Protein lin-28 homolog A	–	–	–	47.9 µM
Nc1nc(N)c2nc(CNCc3ccc(Oc4ccccc4)cc3)cnc2n1	TYMS	inhibitor	–	–	> 100 µM
COCc1nn(Cc2ccc(Cn3ccccc3=O)cc2)cc1C(=O)NCc1nccc(Cl)c1F	F11	–	–	–	> 40 µM
COc1cccc(F)c1-c1nc(-c2ccc(F)cc2)c(-c2ccncc2)[nH]1	TGFBR1	binding, LanthaScreen kinase binding	–	–	0.0891 ± 0.0075 µM
CC#CC(=O)N[C@H]1CCCN(c2c(F)cc(C(N)=O)c3[nH]c(C)c(C)c23)C1	Tyrosine-protein kinase JAK2 (JAK2, Homo sapiens, UniProt O60674)	–	–	–	> 5 µM
CN1CCN(c2ccc(Nc3ncc4cc(C#N)c(=O)n(C5CCCC5)c4n3)cc2)CC1	Tyrosine-protein kinase FRK (FRK, Homo sapiens, UniProt P42685)	–	–	–	0.102 µM
Fc1ccc(-c2nc(-c3ccc4c(c3)OCO4)[nH]c2-c2ccncc2)cc1	TGFBR1	binding, LanthaScreen kinase binding	–	–	> 5 µM
CC[C@@H]1[C@H](F)C(=O)N[C@@H]1COc1nccc2cc(C(N)=O)c(OC)cc12	Serine/threonine-protein kinase VRK2 (VRK2, Homo sapiens, UniProt Q86Y07)	ATP-site probe binding, ActivX profiling	THP-1 cell lysate	Lys2 site	> 5 µM
COc1ccc(CNC(=O)c2ccc(CNCc3cnc4nc(N)nc(N)c4n3)cc2)cc1OC	TYMS	inhibitor	–	–	> 100 µM
C[C@H]1C[C@@H](N2C(=N)N[C@](C)(c3cccc(Nc4ccc(C5CC5)nc4)c3Cl)CC2=O)CCO1	Cathepsin D (CTSD, Homo sapiens, UniProt P07339)	enzyme activity, inhibitor	ARPE-19	–	0.03 µM
Cc1cccc(-c2nc(-c3ccc(S(C)(=O)=O)cc3)[nH]c2-c2ccncc2)c1	TGFBR1	binding, LanthaScreen kinase binding	–	–	1.17 ± 0.262 µM
COc1ccc(Oc2ccc(CN(C)Cc3cnc4nc(N)nc(N)c4n3)cc2)cc1	TYMS	inhibitor	–	–	> 100 µM

Structure (SMILES)	target	test	test system	setting	IC50
COc1cc(O)c(-c2nc(-c3ccc(F)cc3)c(-c3ccncc3)[nH]2)c(OC)c1	TGFBR1	binding, LanthaScreen kinase binding	–	–	> 5 µM
Cc1[nH]c2ccccc2c1CCNCc1ccc(/C=C/C(=O)NO)cc1	Polyamine deacetylase HDAC10 (hdac10, Danio rerio, UniProt F1QCV2)	–	–	–	0.05 ± 0.007 µM
C/C(=C\CNc1ncnc2[nH]cnc12)CO	Gelsolin, peptide (GSN, Homo sapiens, UniProt P06396, D214Y)	–	–	–	9 ± 7 µM
Nc1nc(N)c2nc(C(=O)NCc3cccc(C(F)(F)F)c3)cnc2n1	TYMS	inhibitor	–	–	> 100 µM
Nc1ncnc2c1ncn2[C@@H]1O[C@H](COP(=O)(O)OP(=O)(O)OP(=O)(O)O)[C@@H](O)[C@H]1O	P2Y receptor rat	binding, radioligand binding	–	–	0.019 µM
Cn1c(SCc2ccccc2Cl)nc(=O)c2c1NC(=O)CC2c1ccc2c(c1)OCCO2 (stereo not drawn)	Protein lin-28 homolog A	–	–	–	10.5 µM
Cn1cc2c(C(=O)O)ccc(NS(=O)(=O)c3ccc(OCC4CCC4)c(Cl)c3)c2n1	Sodium-dependent noradrenaline transporter (SLC6A2, Homo sapiens, UniProt P23975)	antagonist	–	–	> 10 µM
FC(F)(F)CN1CC(n2cc(Oc3ccn4nc(Cl)cc4n3)cn2)C1	Very long chain fatty acid elongase 3 (Homo sapiens, UniProt Q9HB03)	enzyme activity	microsomes	–	> 10 µM
CCCCOc1cc(C(=O)NCCN(CC)CC)c2ccccc2n1	PKD2L1 (Homo sapiens, UniProt Q9P0L9, F549H)	ion current, inhibitor	–	F549H	17.5 µM
NC(=O)c1cccc2c1O/C(=C\c1ccc(C(=O)NC3CCNCC3)s1)C2=O	PARP1	inhibitor	–	–	0.26 µM
COc1cc2nccc(Oc3ccc(NC(=O)c4cc5c(n(-c6ccccc6)c4=O)CCCC5=O)nc3)c2cc1OC	Tyrosine-protein kinase Blk (BLK, Homo sapiens, UniProt P51451)	cell viability, CellTiter-Glo	Ba/F3 expressing recombinant kinase	48 h	> 0.1 µM
Fc1ccc(-c2nc(-c3ccc4ccccc4c3)[nH]c2-c2ccncc2)cc1	TGFBR1	binding, LanthaScreen kinase binding	–	–	> 5 µM
COCc1nn(Cc2ccc(Cn3ccccc3=O)cc2)cc1C(=O)NCc1nccc(OC(C)C)c1F	F11	–	–	–	> 40 µM
OC(c1cc(C(F)(F)F)nc2c(C(F)(F)F)cccc12)C1CCCCN1 (racemic)	mtr-1 (Escherichia coli, UniProt A0A3T0V9Y5)	–	–	–	210 µM
CCCCCC/C=C1\C=C(C(F)(F)F)c2cc3c(cc21)OCO3	Thioredoxin (TXN, Homo sapiens, UniProt P10599)	insulin reduction, inhibitor	–	1 h, 37 °C, preincubation	no inhibition
[H]/N=C(/N)c1ccc(NCc2nc3cc(C(=O)N(CCC(=O)O)c4ccccn4)ccc3n2C)cc1	Vitamin K-dependent protein C (PROC, Homo sapiens, UniProt P04070)	–	–	–	1.6 ± 0.1 µM
NC(=O)c1cccc2c1O/C(=C\c1ccc(C(=O)NC3CC(F)(F)C3)s1)C2=O	PARP1	inhibitor	–	–	0.22 µM
COc1cc2c(c(OC)c1OC)-c1c(cc3c(c1OC)OCO3)CC(C)C(C)C2 (stereo not drawn)	CYP3A, rat	poziotinib metabolism to M2, inhibitor	rat liver microsomes, 0.3 mg/mL	30 min, added: poziotinib 5 µM	6.97 µM
CCCC(C)N1CCC(N(CCCNC(=O)CCl)C(=O)Nc2cccc(C(F)(F)F)c2)CC1 (stereo not drawn)	DCN1-like protein 1 PONY domain	binding, inhibitor, TR-FRET	–	24 h, racemic mixture	7.74 ± 0.039 µM
COc1c(C(=O)O)csc1Br	Protein lin-28 homolog A	–	–	–	4.8 µM
Cc1cccc(-c2nc(C(O)C3=CCCCC3)[nH]c2-c2ccncc2)c1 (stereo not drawn)	TGFBR1	binding, LanthaScreen kinase binding	–	–	0.549 ± 0.0486 µM
Cc1cnc(-c2ccc(-c3ccc(NC(=O)Nc4c(F)cc(F)cc4F)cc3F)c3c2C(=O)NC3)[nH]1	Angiopoietin-1 receptor (TEK, Homo sapiens, UniProt Q02763)	enzyme activity, inhibitor, mobility shift	–	added: ATP 1 mM	0.0046 µM
Cc1cccc(-c2nc(-c3ccc([N+](=O)[O-])cc3)[nH]c2-c2ccncc2)c1	TGFBR1	binding, LanthaScreen kinase binding	–	–	0.689 ± 0.142 µM
N=C(N)c1ccc(CNC(=O)c2cnn(Cc3ccccc3)c2)cc1	F11	–	–	–	22 µM

For quick reference, copied from above:
Structure (SMILES)	target	test	test system	setting	IC50
COc1cccc(F)c1-c1nc(-c2ccc(F)cc2)c(-c2ccncc2)[nH]1	TGFBR1	binding, LanthaScreen kinase binding	–	–	0.0891 ± 0.0075 µM
CC#CC(=O)N[C@H]1CCCN(c2c(F)cc(C(N)=O)c3[nH]c(C)c(C)c23)C1	Tyrosine-protein kinase JAK2 (JAK2, Homo sapiens, UniProt O60674)	–	–	–	> 5 µM
CN1CCN(c2ccc(Nc3ncc4cc(C#N)c(=O)n(C5CCCC5)c4n3)cc2)CC1	Tyrosine-protein kinase FRK (FRK, Homo sapiens, UniProt P42685)	–	–	–	0.102 µM
Fc1ccc(-c2nc(-c3ccc4c(c3)OCO4)[nH]c2-c2ccncc2)cc1	TGFBR1	binding, LanthaScreen kinase binding	–	–	> 5 µM
